Assay results of several laboratories.
Protocols differ between the studies behind these lines. Numbers after ± are the reported error.
STING1 H232R: Stimulator of interferon genes protein (STING1, Homo sapiens, UniProt Q86WV6, H232R)

| Compound | target | test | system | setting | measurement | result |
| --- | --- | --- | --- | --- | --- | --- |
| O=C(O)C1OC(OC2C(C(=O)O)OC(OC3C(C(=O)O)OC(OC4C(C(=O)O)OC(O)C(O)C4O)C(O)C3O)C(O)C2O)C(O)C(O)C1O (stereo not shown) | Beta-lactoglobulin (LGB, Bos taurus, UniProt P02754, A134V/G80D) | isothermal titration calorimetry | – | pH 4.00, 37 °C, 50 mM KH2PO4 | Kd | 234 µM |
| CCCCCCCC/C=C\CCCCCCCC(=O)OCC(O)COP(=O)(O)O (stereo not shown) | Lysophosphatidic acid receptor 1 (LPAR1, Homo sapiens, UniProt Q92633, W210A) | G-protein dissociation, agonist, NanoBiT | human cells | – | EC50 | 0.0648 µM |
| O=C(NCC[C@H](NC(=O)c1nc(-c2ccccc2)no1)c1nc2ccccc2[nH]1)c1ccc([N+](=O)[O-])o1 | STING1 H232R | reporter gene, inhibitor | THP1-Dual KI-hSTING-R232 | 24 h, 1 h preincubation, with: diABZI 500 nM | EC50 | 12.4 µM |
| Cn1ccc2c(N3CCN(CCCCOc4ccc5c(c4)NC(=O)CC5)CC3)cccc21 | 5-hydroxytryptamine receptor 5A (HTR5A, Homo sapiens, UniProt P47898) | ligand displacement, radioligand | – | – | Ki | > 10 µM |
| CC(C)(C)c1noc(C(=O)N[C@@H](CCNC(=O)c2ccc([N+](=O)[O-])o2)c2nc3ccccc3[nH]2)n1 | STING1 H232R | reporter gene, inhibitor | THP1-Dual KI-hSTING-R232 | 24 h, 1 h preincubation, with: diABZI 500 nM | EC50 | 14.9 µM |
| CC(=O)N1c2ccc(-c3ccc(CNC(=O)c4cn5cc(-c6cnc(N)nc6)nc(N6CCOCC6)c5n4)cc3)cc2CC[C@@H]1C | Bromodomain-containing protein 3, BD1 (BRD3, Homo sapiens, UniProt Q15059) | binding, competition with immobilised ligand | – | – | Kd | 0.038 µM |
| O=C(N[C@@H](CCNC(=O)c1ccc([N+](=O)[O-])o1)c1nc2ccccc2[nH]1)c1ccc(-c2ccc(F)cc2)o1 | STING1 H232R | reporter gene, inhibitor | THP1-Dual KI-hSTING-R232 | 24 h, 1 h preincubation, with: diABZI 500 nM | EC50 | 9.4 µM |
| Cc1nn(-c2cccc(N)c2)c(=O)c2cnc(Nc3ccc(N4CCNCC4)cc3)nc12 | Mitogen-activated protein kinase 12 (MAPK12, Homo sapiens, UniProt P53778) | SelectScreen kinase | – | – | IC50 | > 10 µM |
| O=C(Nc1ccc(-c2ccccc2)cc1)N[C@@H](CCNC(=O)c1ccc([N+](=O)[O-])o1)c1nc2ccccc2[nH]1 | STING1 H232R | reporter gene, inhibitor | THP1-Dual KI-hSTING-R232 | 24 h, 1 h preincubation, with: diABZI 500 nM | EC50 | 4.6 µM |
| Cc1cccc2c1N(C(=O)n1ccnn1)CC2 | KAI2 (Arabidopsis thaliana, UniProt Q9SZU7, S95C) | ITC | – | S95C mutant, mean | Kd | 28.6 µM |
| COc1ccc(C(=O)c2c(C(=O)NCCCN(C)C)oc3ccc(Cl)cc3c2=O)cc1OC | Growth hormone secretagogue receptor type 1 (GHSR, Homo sapiens, UniProt Q92847) | Gαi2 dissociation, agonist, TRUPATH BRET | HEK293T | – | EC50 | 2.51 µM |
| CCOC(=O)C(CC)(CCCSCCOCCOCCNC(=O)OC(C)(C)C)NC(=O)c1ccc(C2CC2)c(Cc2ccc(F)cc2)n1 (racemic) | Cannabinoid receptor 2 (Cnr2, Mus musculus, UniProt P47936) | ligand displacement, radioligand | – | cell membranes | Ki | 0.213 µM |
| O=C(N[C@@H](CCCCNC(=O)c1ccc([N+](=O)[O-])o1)c1nc2ccccc2[nH]1)c1cnc(-c2ccccc2)nc1 | STING1 H232R | reporter gene, inhibitor | THP1-Dual KI-hSTING-R232 | 24 h, 1 h preincubation, with: diABZI 500 nM | EC50 | 6.2 µM |
| O=C(O)C(Cc1c[nH]cn1)N1C(=O)c2ccc3c4ccc5c6c(ccc(c7ccc(c2c37)C1=O)c64)C(=O)N(CCN1CCCCC1)C5=O (stereo not shown) | human telomeric G-quadruplex DNA | binding, thiazole orange displacement | – | pH 6 | DC50 | 0.78 ± 0.05 µM |
| O=C(N[C@@H](CCNC(=O)c1ccc([N+](=O)[O-])o1)c1nc2ccccc2[nH]1)c1ccc(C#CC2CC2)cc1 | STING1 H232R | reporter gene, inhibitor | THP1-Dual KI-hSTING-R232 | 24 h, 1 h preincubation, with: diABZI 500 nM | EC50 | 5.1 µM |
| O=C1c2ccc3c4ccc5c6c(ccc(c7ccc(c2c37)C(=O)N1CCN1CCCCC1)c64)C(=O)N(CCN1CCCCC1)C5=O | human telomeric G-quadruplex DNA | binding, thiazole orange displacement | – | pH 8 | DC50 | 1.85 ± 0.27 µM |
| O=C(NC[C@@H](Cc1ccc(F)cc1)N1CCC(O)(C(F)(F)F)CC1)C1(c2ccc(Cl)cc2)CCCC1 | Transient receptor potential cation channel subfamily A member 1 (TRPA1, Homo sapiens, UniProt O75762, L881M) | – | – | – | EC50 | 0.047 µM |
| O=C(O)C(Cc1c[nH]cn1)N1C(=O)c2ccc3c4ccc5c6c(ccc(c7ccc(c2c37)C1=O)c64)C(=O)N(C(Cc1c[nH]cn1)C(=O)O)C5=O (stereo not shown) | human telomeric G-quadruplex DNA | binding, thiazole orange displacement | – | pH 6 | DC50 | > 2.5 µM |
| C[n+]1cn([C@@H]2O[C@H](COP(=O)(O)OP(=O)([O-])OP(=O)(O)OC[C@H]3O[C@@H](n4cnc5c(N)ncnc54)[C@H](O)[C@@H]3OP(=O)(O)OC[C@H]3O[C@@H](n4cnc5c(=O)[nH]c(N)nc54)[C@H](O)[C@@H]3O)[C@@H](O)[C@H]2O)c2nc(N)nc(O)c21 | Antiviral innate immune response effector IFIT1 (IFIT1, Homo sapiens, UniProt P09914) | microscale thermophoresis | – | pH 7.5, with: structured cap I RNA, 35 nt | Kd | 0.008 µM |

For quick reference, copied from above:
| Compound | target | test | system | setting | measurement | result |
| --- | --- | --- | --- | --- | --- | --- |
| CC(=O)N1c2ccc(-c3ccc(CNC(=O)c4cn5cc(-c6cnc(N)nc6)nc(N6CCOCC6)c5n4)cc3)cc2CC[C@@H]1C | Bromodomain-containing protein 3, BD1 (BRD3, Homo sapiens, UniProt Q15059) | binding, competition with immobilised ligand | – | – | Kd | 0.038 µM |
| O=C(N[C@@H](CCNC(=O)c1ccc([N+](=O)[O-])o1)c1nc2ccccc2[nH]1)c1ccc(-c2ccc(F)cc2)o1 | STING1 H232R | reporter gene, inhibitor | THP1-Dual KI-hSTING-R232 | 24 h, 1 h preincubation, with: diABZI 500 nM | EC50 | 9.4 µM |
